# Results pooled from the literature.
# Lines come from different studies, so protocols differ. “And” joins repeats or separate records; there may be more than shown. ± gives the spread as reported. No end group written: not given here.
# S100A9: Protein S100-A9 (S100A9, Homo sapiens, UniProt P06702)
# UniProt P06702, sequence (whole entry, looked up): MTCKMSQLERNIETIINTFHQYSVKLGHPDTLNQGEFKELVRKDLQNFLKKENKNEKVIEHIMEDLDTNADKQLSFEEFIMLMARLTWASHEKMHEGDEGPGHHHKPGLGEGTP
# B1: enzyme (Bacillus pumilus, UniProt A8FFI9); chain EARSIAWSVDEFFKNREGTFVIQEVKEKSPWVYNKKRAKERFAPQSTFKVANALIGLQTGAVRDEYDIKYWDGVKREIDNWNRDHTLGSGMRDSVVWYYQAMARDIGEERMNHWVKAIHYGNKDISGGIDQFWLSSTLRISPIEQVRFLKQLYEETLPFDLKNMRTVKRMMVQEEEKHATLYGKTGSGSDIGWYVGFIKHEHKTYILATNIKGTGIEAKDITYRILKKYHLMEASV
# UniProt O60656, sequence (whole entry, looked up): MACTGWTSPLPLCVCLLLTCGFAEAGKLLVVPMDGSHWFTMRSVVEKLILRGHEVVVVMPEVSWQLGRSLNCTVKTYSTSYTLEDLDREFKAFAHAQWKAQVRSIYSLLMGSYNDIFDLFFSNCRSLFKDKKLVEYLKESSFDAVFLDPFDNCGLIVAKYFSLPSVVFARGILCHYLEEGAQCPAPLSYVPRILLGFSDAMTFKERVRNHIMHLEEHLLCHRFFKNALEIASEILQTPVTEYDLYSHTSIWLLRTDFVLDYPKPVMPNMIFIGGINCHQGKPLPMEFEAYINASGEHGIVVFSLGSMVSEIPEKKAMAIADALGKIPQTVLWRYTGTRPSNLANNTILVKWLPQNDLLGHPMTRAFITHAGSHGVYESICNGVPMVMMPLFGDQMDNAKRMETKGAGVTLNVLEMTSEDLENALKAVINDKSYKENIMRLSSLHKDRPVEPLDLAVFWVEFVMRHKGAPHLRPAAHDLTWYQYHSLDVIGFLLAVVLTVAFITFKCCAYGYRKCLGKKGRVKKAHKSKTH
# UniProt P19466, sequence (whole entry, unmodified, looked up): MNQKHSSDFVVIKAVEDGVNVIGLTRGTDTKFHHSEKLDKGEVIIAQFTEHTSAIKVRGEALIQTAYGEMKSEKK
Substance,tested on,assay,system,setting,scale,endpoint,result
SIIVFEKL,,"flow cytometry, measured: CD44hi CD8+ T cells","peptide, OT-I CD8+ T cells, mouse","1 µg/mL loading, primed 5 days, restimulated 100 ng/mL OVA257, together with: no TGF-β1",,triple cytokine producers,67.5%
"GCGGACGGACAGAGAGUGCAACCUGCCGUGCCGC (ssRNA; 2'-F pyrimidines, 5' thiol-C6)",ITGA5/ITGB1 on cells (Homo sapiens),flow cytometry,T24,"MgCl2 1 mM, CaCl2 0.5 mM, not purified",,Kd,232 ± 29.7 nM
COc1ccc2c(c1)c(CC(=O)O)c(C)n2C(=O)c1ccc(Cl)cc1,,"multiplex bead immunoassay, measured: MCP-1","CD-1 mice, serum","ip, 20 mg/kg, three-injection regimen, together with: LPS 3 mg/kg",,cytokine level,1160 ± 664 pg/mL
Insulin human,,ELISA,"rat, substantia nigra/ventral tegmental area","intranasal, 20 µg per nostril, 15 min",,concentration,218 ± 73.8 pg/mg tissue
PACAP,,"qRT-PCR, GAPDH-normalised, measured: Neprilysin","APP V717I transgenic mouse, 6 months old, brain","intranasal, dose not given, 3 months",reference: vehicle-treated mice,mRNA level,146 ± 7.1%
CC(=O)Oc1ccccc1C(=O)O,,,"Sprague-Dawley rat, common carotid artery","dose not given, 5 days twice daily, shear-induced thrombosis",,thrombus protein content,77 ± 54 µg
Cc1c(OCC(F)(F)F)ccnc1C[S@@+]([O-])c1nc2ccccc2[nH]1,,,healthy humans,"oral, 60 mg, 0 to 12 h postdose, pH 4 threshold, single dose",,time with intragastric pH above threshold,56%
human neutrophil elastase,S100A9,ELISA,,"70 min, 37 °C",,Kd,> 100 nM
cotadutide,,measured: CGM blood glucose,"human, type 2 diabetes, CKD","subcutaneous, 50 to 300 µg once daily, day 32",reference: baseline,change in average glucose,-41.4 mg/dL
Cc1ccc(NC(=O)c2ccc(CN3CCN(C)CC3)cc2)cc1Nc1nccc(-c2cncc(-c3oncc3C)c2)n1,,,mild-to-moderate Parkinson's disease patients,"oral, 50 mg once daily, day 7, on anti-Parkinson medication",direction not given,PDQ-39 score,19.9 ± 8.2
Cc1[nH]c2ccccc2c1CCNCc1ccc(/C=C/C(=O)NO)cc1,,,high-risk AML patients,"15 mg, together with: idarubicin and cytarabine",,discontinuation due to progression,9.1%
N=C(N)c1ccc(OCCCCCCCOc2ccc(C(=N)N)cc2)cc1,,measured: Atp2a1 exon 22,"HSA^LR mouse, DM1 model","ip, 30 mg/kg/day, 7 d",,exon inclusion,62 ± 4%
human cathepsin G,S100A9,ELISA,,"70 min, 37 °C",,Kd,> 100 nM
Cc1c(CN2CCN(C(=O)[C@H](C)O)CC2)sc2c(N3CCOCC3)nc(-c3cnc(N)nc3)nc12,,measured: pAkt,"786-O xenograft mice, tumour","oral, 0.3, 3, 10 mg/kg, PK-PD model, plasma concentration",,IC50,0.403 µg/mL
Cc1c(C(=O)Nc2ccc(N3C[C@@H](C)O[C@@H](C)C3)nc2)cccc1-c1ccc(OC(F)(F)F)cc1,,"cell growth, 3H-thymidine uptake","freshly isolated resistant medulloblastoma cells, mouse","48 h, ex vivo",,IC50,> 20000 nM
GAGUUGAGUUGAGUUGAGUUGAGUUGAGUUGAGUUGAGUUGAGUUGAGUUGAGUU (ssRNA; single strand),"mtrB full length assumed T30V/D39A (Bacillus subtilis, UniProt P19466)",filter binding,,together with: no tryptophan,,Kd,7 ± 1 nM
CCCOc1ccc(S(=O)(=O)NCCC2CCCN2C)cc1-c1nc2c(CCC)nn(C)c2c(=O)[nH]1 (stereo not drawn),,ramp cycle exercise test,human adolescents after Fontan palliation,"oral, 87.5 mg once daily, day 5",,VO2 at anaerobic threshold,16.5 ± 4.8 mL/min/kg
eptifibatide,,,"C57BL/6 mice, LPS-induced thrombocytopenia","retro-orbital, 5 mg/kg, 2 and 4 h, together with: LPS 12 mg/kg i.p.",,platelet count,no effect
C[C@H]1CC[C@H](n2c3cnccc3c3cnc(Nc4ccc5c(n4)CCN(C(=O)CO)C5)nc32)CC1,,Rb Ser780 phosphorylation,"mouse, orthotopic MOLM13-Luc tumour, femur","plasma concentration, model estimate",,IC50,3.93 nM
CS/C(S)=N/CCCC[S+](C)[O-] (racemic),,"RT-PCR, measured: Abcb1b","rat, colon","oral gavage, 200 mg/kg, 96 h, dosed for four days",reference: vehicle,mRNA fold change,0.759
Cc1cc(C)c(/C=C2\C(=O)Nc3ccccc32)[nH]1,,MRI,human,"concentration not given, 14.3 months",,tumour area,1.33 cm²
C[C@H](NC(=O)CCc1nc2cccnc2n1Cc1ccc(OC(F)(F)F)cc1)c1ccc(Cl)cc1,,,"C57BL/6 mouse, bleomycin fibrosis","oral, 10 mg/kg twice daily, 21 days, prophylactic",,modified Ashcroft score,decreased
CCC1=C(C)CN(C(=O)NCCc2ccc(S(=O)(=O)NC(=O)N[C@H]3CC[C@H](C)CC3)cc2)C1=O,,oral glucose tolerance test,"healthy male humans, serum","oral, dose not given, steady state, together with: 75 g glucose",,maximum serum glucose,134 mg/dL
insulin lispro,,euglycemic clamp,healthy humans,"subcutaneous, 10 units, 8 h",,maximum glucose infusion rate,9 mg/kg/min
gamma-MSH,,,"Sprague Dawley rat, urethane-anaesthetised","intravenous, 15 nmol, response decreased by 90%",,MAP response resolution time,4.5 ± 0.6 min
CN(C)C(=O)N[C@H]1CC[C@H](CCN2CCN(c3cccc(Cl)c3Cl)CC2)CC1,,open field,"Sprague-Dawley rat, ouabain mania model","intraperitoneal, 0.50 mg/kg, 1 h pretreatment, 30 min observation, together with: ouabain i.c.v.",,locomotor activity,40.6 ± 5.32 squares crossed
Polymyxin B,,,human whole blood,"125 ng/mL, 4 h, 37 °C, together with: E. coli LPS 0.5 ng/mL",reference: LPS without compound,IL-8 release,53.6 ± 14.5%
CC(C)C[C@H](NC(=O)[C@H](CO)NC(=O)[C@H](CCCNC(=N)N)NC(=O)[C@H](CC(=O)O)NC(=O)[C@H](CCC(=O)O)NC(=O)[C@H](C)NC(=O)[C@@H]1CCCN1C(=O)[C@H](C)NC(=O)[C@H](CCC(=O)O)NC(=O)[C@@H]1CCCN1C(=O)[C@@H]1CCCN1)C(N)=O,,measured: tyrosine hydroxylase,"rat F344, unilateral 6-OHDA lesion, lesioned SNpc rostral, -5.24 mm from bregma","intranasal, 300 µg daily",,TH+ neuron number,25 ± 5
SIYNFEKL,,"flow cytometry, measured: CD44hi CD8+ T cells","peptide, OT-I CD8+ T cells, mouse","dose not given, primed 5 days, TGF-β1 from day 2 onward, together with: 20 ng/mL TGF-β1",,TNF-α only cells,0.06%
COc1ccc2c(Cc3ccccc3F)c3n(c(=O)c2c1OC)CCc1cc2c(cc1-3)OCO2,,,"mouse, collagen-induced arthritis, splenocytes","oral, 15 and 60 mg/kg, 24 h, together with: LPS 1 µg/mL",reference: vehicle,TNF-α and IL-6 production,decreased
Nc1ccc([N+](=O)[O-])cc1-c1nc2ccccc2n(Cc2ccccc2)c1=O,,short-circuit current increase,"mouse, freshly isolated colon",Cl- secretion,,EC50,~300 nM
polymyxin B,,,EYPG vesicles,"10 µg/mL, 250 s, pH 7.4, 25 °C",reference: Triton X-100,carboxyfluorescein leakage,53%
"UGT1A9 (Homo sapiens, UniProt O60656)",O=c1cc(-c2ccc(O)c(O)c2)oc2cc(O)cc(O)c12,steady-state kinetics,,"pH 7.4, 37 °C",,Vmax/Km,3870 µL/min/mg and 2100 µL/min/mg
COc1ccc(-n2c(SC/C(=N/O)c3ccc(Cl)cc3)nnc2-c2nnn(-c3ccc(S(N)(=O)=O)cc3)c2C)cc1,,Griess,phosphate buffer-methanol,"100 µM, 1 h, pH 7.4, 37 °C, together with: N-acetylcysteine 0.5 mM",reference: theoretical maximum release,NO released,0.9%
CCOc1cc(/C=C2\CN(C(C)=O)CC3=C2OC(N)=C(C#N)C3c2ccc(O)c(OCC)c2)ccc1O (stereo not drawn),,,"rat, DMBA-induced mammary tumour, mammary tumour","2 mg/kg per week, day 42",reference: before treatment,tumour size decrease,79%
Cc1ccc(NC(=O)c2ccc(CN3CCN(C)CC3)cc2)cc1Nc1nccc(-c2cccnc2)n1,,,"rat, SU5416/hypoxia PAH model","oral, 15.0 mg/kg once daily, day 49",,RVSP,61.1 ± 7.4 mmHg
COC(=O)[C@@H](N)CCCNC(N)=N[N+](=O)[O-],,IFN-γ ELISPOT,"EL4 tumour-bearing mice, spleen","drinking water, 2 g/L, 13 days, together with: PNT-S peptide pool",reference: untreated,CD8+ T cell response,~5 fold
Clc1cccc(-c2c[nH]c(-c3ccccc3)n2)c1,,"tonic-clonic seizure protection, maximal electroshock seizure test",mice,"intraperitoneal, 0.25 h",,ED50,~130 mg/kg
cilengitide,,,"Sprague-Dawley rats, ethanol control, colonic smooth muscle cells","ip, 18 mg/kg/day, 42 d",,active TGF-β1 level,0.94 ± 0.015 ng/mg protein
Cy5-CVWSLQNTLFM (Cy5-labelled; sequence looked up),,GUV inward budding,"peptide, POPC/cholesterol GUVs","30 µM, 30 min",,ILVs per GUV,0.5
desB30 human insulin,none,"reversed-phase chromatography, C4 silica",,"concentration not given, pH 7.5, up to 40 °C, together with: KCl, ethanol",,entropy change of adsorption,-510 ± 72 J/(mol·K)
B1 (enzyme),C[C@@H](O)[C@H]1C(=O)N2C(C(=O)O)=C(SCCN=CN)C[C@H]12,steady-state kinetics,,pH 7,,kcat/Km,39000 ± 6000 M⁻¹ s⁻¹
C[C@H]1C[C@H]2CSC(N)=N[C@@]2(c2nc(NC(=O)c3ccc(OC(F)F)cn3)cs2)CO1,,measured: CSF Aβx-38,healthy adults,"50 mg once daily, 14 days, day 15",reference: placebo-adjusted baseline,change from baseline,-59.8%
CCCCC/C=C\C/C=C\CCCCCCCCP(=O)(OCC)OCC,,,mouse,"lingual, dose not given, together with: linoleic or oleic acid",reference: fatty acid alone,chorda tympani nerve response,increased
CC[C@H](C)[C@H](NC(=O)[C@H](CCC(N)=O)NC(=O)[C@H](Cc1c[nH]cn1)NC(=O)[C@H](C)NC(=O)[C@H](CC(C)C)NC(=O)[C@H](CCCCN)NC(=O)[C@H](CCC(N)=O)NC(=O)[C@@H](NC(=O)[C@@H](NC(=O)[C@@H]1CSSC[C@H](NC(=O)CNC(=O)[C@H](Cc2ccccc2)NC(=O)[C@H](CO)NC(=O)[C@H](CCCNC(=N)N)NC(=O)[C@H](CC(C)C)NC(=O)CNC(=O)[C@H](CCC(N)=O)NC(=O)[C@H](Cc2ccccc2)NC(=O)[C@H](CC(N)=O)NC(=O)[C@H](CC(N)=O)NC(=O)[C@H](CCSC)NC(=O)[C@H](CO)NC(=O)[C@H](CCC(N)=O)NC(=O)[C@H](CCCNC(=N)N)NC(=O)[C@@H](N)Cc2ccc(O)cc2)C(=O)N[C@@H](CCCNC(=N)N)C(=O)N[C@@H](Cc2ccccc2)C(=O)NCC(=O)N[C@@H]([C@@H](C)O)C(=O)N1)[C@@H](C)O)C(C)C)C(=O)N[C@@H](Cc1ccc(O)cc1)C(=O)N[C@@H](CCC(N)=O)C(=O)N[C@@H](Cc1ccccc1)C(=O)N[C@H](C(=O)N[C@@H](CC(=O)O)C(=O)N[C@@H](CCCCN)C(=O)N[C@@H](CC(=O)O)C(=O)N[C@@H](CCCCN)C(=O)N[C@@H](CC(=O)O)C(=O)N[C@@H](CC(N)=O)C(=O)N[C@H](C(=O)N[C@@H](C)C(=O)N1CCC[C@H]1C(=O)N[C@@H](CCCNC(=N)N)C(=O)N[C@@H](CO)C(=O)N[C@@H](CCCCN)C(=O)N[C@H](C(=O)N[C@@H](CO)C(=O)N1CCC[C@H]1C(=O)N[C@@H](CCC(N)=O)C(=O)NCC(=O)N[C@@H](Cc1ccc(O)cc1)C(N)=O)[C@@H](C)CC)C(C)C)[C@@H](C)O,,,"patients, biologic-resistant Crohn's disease","intravenous infusion, 10 ng/kg/min, 16 weeks, unit not given, together with: biologic",reference: baseline,change in CDAI,-45 ± 42

# Repeated from above:
Substance,tested on,assay,system,setting,scale,endpoint,result
insulin lispro,,euglycemic clamp,healthy humans,"subcutaneous, 10 units, 8 h",,maximum glucose infusion rate,9 mg/kg/min
gamma-MSH,,,"Sprague Dawley rat, urethane-anaesthetised","intravenous, 15 nmol, response decreased by 90%",,MAP response resolution time,4.5 ± 0.6 min
